Published values of several laboratories.
Compare with care: the assays were run in different laboratories. ± gives the spread as reported.

`CCCCCCCC(=O)N[C@@H](CCCCN)C(=O)N[C@@H](CCCCN)C(=O)N[C@@H](C)C(=O)N[C@@H](CC(C)C)C(=O)N[C@@H](CCCCN)C(=O)N[C@@H](CC(C)C)C(=O)N[C@@H](C)C(=O)N[C@@H](CCCCN)C(=O)N[C@@H](CCCCN)C(=O)N1CCC[C@H]1C(=O)N[C@@H](CC(C)C)C(=O)N[C@@H](CCCCN)C(=O)N[C@@H](CC(C)C)C(=O)N[C@@H](CC(C)C)C(=O)N[C@@H](CCCCN)C(N)=O` — result for “volume of distribution”: 0.926 ± 0.637 L/kg (mouse ICR CD1 female, whole blood; intravenous bolus, 10 mg/kg).
For `O=C(O)CCCOc1ccc(F)cc1-c1cc(-c2ccccc2C(F)(F)F)n(-c2ccccc2)n1`, “serum protein fraction” read 9.3 ± 1% (refers to: α2-glb; Crl:CD(SD) rats, male, serum; iv, 25 µg/kg, 14 days).
`CC(C)(O)c1cc(Nc2cc(Oc3cn(C4CC4)nc3C3CCOCC3)ccn2)ccn1`: “AST increased, grade ≥3” 0% (patients with advanced cancer, Japanese cohort; oral, dose not given, treatment-related adverse events).
The drug-related TEAEs of `C[C@]1(CO)Cc2ncn(-c3ccc(C#N)c(Cl)c3)c2C(=O)O1` is reported as 25% (human; all treatments, European food-effect part).
`CCCCCOc1ccc(-c2ccc(-c3ccc(C(=O)N[C@H]4C[C@@H](O)[C@@H](OCC[N+](C)(C)C)NC(=O)[C@@H]5[C@@H](O)[C@@H](C)CN5C(=O)[C@H]([C@@H](C)O)NC(=O)[C@H]([C@H](O)[C@@H](O)c5ccc(O)cc5)NC(=O)[C@@H]5C[C@@H](O)CN5C(=O)[C@H]([C@@H](C)O)NC4=O)cc3)cc2)cc1` gave an AUC(0-168 h) of 760 µg·h/mL (adult patients in ICU, plasma; intravenous, 400 mg loading, after first dose, mean).
The blood chemistry of `CC(C)Nc1ccnc(Nc2cccc(-c3cccnc3)c2)n1` is reported as 0.27 mg/dL (refers to: total bilirubin; mouse, blood; intraperitoneal, 3 mg/kg).
`COc1cc2c(Oc3ccc4[nH]c(C)cc4c3F)ccnc2cc1OCC1(N)CC1`: “Triglyceride elevation incidence” 50% (paediatric refractory sarcoma patients; 10 mg).
`C[C@@H](NC(=O)N1C(=O)[C@H](Cc2ccnc(N)c2)[C@H]1C(=O)O)C1CCCCC1`: “incidence of urine erythrocyte positive” 12.5% (healthy adult Chinese volunteers; continuous intravenous infusion, 1.0 mg/kg/h, 5-day infusion, CTCAE 5.0 grading).
For `C=CCNc1c(O)cc2c(O)c1C[C@@H](C)C[C@H](OC)[C@H](O)[C@@H](C)/C=C(\C)[C@H](OC(N)=O)[C@@H](OC)/C=C\C=C(/C)C(=O)N2`, “patients with diarrhoea TEAE” read 33% (unresectable or metastatic STS, GIST, other; intravenous, 90 mg/m^2).
`O=c1ccc2ccc3occc3c2o1` gave an accuracy of 92% (rat plasma; 8 ng/mL, 2 weeks, -70 °C, post-preparative stability).
For `CC(C)[C@@H]1NC(=O)CNC(=O)[C@H](CC(N)=O)NC(=O)[C@H](CCCNC(=N)N)NC(=O)[C@H](Cc2ccc(O)cc2)NC(=O)[C@H](C(C)C)NC(=O)[C@@H](NC(=O)[C@@H](NC(=O)[C@H](CC(N)=O)NC(=O)[C@H](Cc2c[nH]c3ccccc23)NC(=O)[C@H](C)NC(=O)[C@H](Cc2ccccc2)NC(=O)CN)C(C)C)CSSC[C@@H](C(=O)N[C@@H](Cc2cnc[nH]2)C(=O)N[C@@H](CCCNC(=N)N)C(=O)N[C@@H](CCCNC(=N)N)C(=O)N[C@@H](C)C(=O)N[C@@H](CC(N)=O)C(N)=O)NC(=O)[C@H](C(C)C)NC(=O)[C@H](CCCNC(=N)N)NC1=O`, the ALT was 48.8 ± 3.37 IU/L (ICR mouse, blood; intramammary, 5 mg/kg, day 5, 3 d dosing).
With `CO[C@H]1C[C@@H]2CC[C@@H](C)[C@@](O)(O2)C(=O)C(=O)N2CCCC[C@H]2C(=O)O[C@H]([C@H](C)C[C@@H]2CC[C@@H](OC(=O)NCCOCCOCCOCCOCCOCCOCCOCCOCCC(=O)N3CCc4cc(Cn5nc(-c6ccc7oc(N)nc7c6)c6c(N)ncnc65)ccc4C3)[C@H](OC)C2)C[C@@H](O)[C@H](C)/C=C(\C)[C@@H](O)[C@@H](OC)C(=O)[C@H](C)C[C@H](C)/C=C/C=C/C=C/1C` the TRAE incidence was 12.5% (phase 1 dose escalation, refers to: headache; advanced solid tumour patients; intravenous, 10 mg weekly, any grade).
`Cn1nccc1[C@]1(CNC(=O)c2ccc(F)c(F)c2-c2ccc(C(F)(F)F)cc2)NC(=O)NC1=O` gave a dose-normalised AUC of 3.1 kg·h/L (rat; intravenous, 0.3 mg/kg).
For `C[C@]1(O)C[C@@](N)(c2ccc(-c3nc4n(c3-c3ccccc3)COc3ccncc3-4)cc2)C1`, “patients with Fatigue TEAE” read 57.1% (human, advanced or metastatic solid tumours; intermittent, dose escalation total, any grade).

Repeated from above:
`C[C@@H](NC(=O)N1C(=O)[C@H](Cc2ccnc(N)c2)[C@H]1C(=O)O)C1CCCCC1`: “incidence of urine erythrocyte positive” 12.5% (healthy adult Chinese volunteers; continuous intravenous infusion, 1.0 mg/kg/h, 5-day infusion, CTCAE 5.0 grading).
For `C=CCNc1c(O)cc2c(O)c1C[C@@H](C)C[C@H](OC)[C@H](O)[C@@H](C)/C=C(\C)[C@H](OC(N)=O)[C@@H](OC)/C=C\C=C(/C)C(=O)N2`, “patients with diarrhoea TEAE” read 33% (unresectable or metastatic STS, GIST, other; intravenous, 90 mg/m^2).
